Results collected from several papers.
Protocols differ between the studies behind these lines. Several values in a cell are separate wells, animals, samples, runs or records. ± gives the spread as reported.
Sequence of UniProt Q9UM07 (whole entry, looked up): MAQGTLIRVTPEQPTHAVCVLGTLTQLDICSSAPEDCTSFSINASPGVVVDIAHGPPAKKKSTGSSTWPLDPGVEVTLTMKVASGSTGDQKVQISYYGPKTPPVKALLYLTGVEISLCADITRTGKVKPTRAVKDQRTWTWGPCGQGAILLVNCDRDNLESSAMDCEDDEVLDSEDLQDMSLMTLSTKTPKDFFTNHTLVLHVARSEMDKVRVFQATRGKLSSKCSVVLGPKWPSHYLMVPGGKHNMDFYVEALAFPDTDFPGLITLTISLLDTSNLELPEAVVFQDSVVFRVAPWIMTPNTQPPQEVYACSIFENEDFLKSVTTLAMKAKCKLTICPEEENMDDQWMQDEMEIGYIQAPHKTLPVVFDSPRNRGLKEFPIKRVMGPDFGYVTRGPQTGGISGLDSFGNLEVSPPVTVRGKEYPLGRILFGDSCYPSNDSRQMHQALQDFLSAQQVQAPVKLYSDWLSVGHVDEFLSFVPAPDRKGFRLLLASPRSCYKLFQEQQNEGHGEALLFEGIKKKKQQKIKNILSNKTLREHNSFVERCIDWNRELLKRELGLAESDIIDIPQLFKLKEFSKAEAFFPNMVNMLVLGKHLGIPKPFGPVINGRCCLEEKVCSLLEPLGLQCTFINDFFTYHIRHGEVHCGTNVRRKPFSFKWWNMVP
Sequence of UniProt Q9P289 (whole entry, looked up): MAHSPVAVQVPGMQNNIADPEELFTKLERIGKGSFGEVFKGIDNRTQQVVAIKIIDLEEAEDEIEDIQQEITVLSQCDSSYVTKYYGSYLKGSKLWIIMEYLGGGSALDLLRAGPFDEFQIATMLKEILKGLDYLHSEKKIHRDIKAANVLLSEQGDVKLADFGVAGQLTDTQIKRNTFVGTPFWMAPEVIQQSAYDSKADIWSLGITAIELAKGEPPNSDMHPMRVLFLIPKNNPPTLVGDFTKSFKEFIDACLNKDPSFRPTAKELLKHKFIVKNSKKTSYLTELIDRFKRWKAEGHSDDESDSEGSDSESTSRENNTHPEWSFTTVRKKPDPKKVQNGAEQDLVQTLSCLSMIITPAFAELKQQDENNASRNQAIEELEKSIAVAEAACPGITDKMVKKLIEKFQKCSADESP
Sequence of UniProt Q8TBX8 (whole entry, looked up): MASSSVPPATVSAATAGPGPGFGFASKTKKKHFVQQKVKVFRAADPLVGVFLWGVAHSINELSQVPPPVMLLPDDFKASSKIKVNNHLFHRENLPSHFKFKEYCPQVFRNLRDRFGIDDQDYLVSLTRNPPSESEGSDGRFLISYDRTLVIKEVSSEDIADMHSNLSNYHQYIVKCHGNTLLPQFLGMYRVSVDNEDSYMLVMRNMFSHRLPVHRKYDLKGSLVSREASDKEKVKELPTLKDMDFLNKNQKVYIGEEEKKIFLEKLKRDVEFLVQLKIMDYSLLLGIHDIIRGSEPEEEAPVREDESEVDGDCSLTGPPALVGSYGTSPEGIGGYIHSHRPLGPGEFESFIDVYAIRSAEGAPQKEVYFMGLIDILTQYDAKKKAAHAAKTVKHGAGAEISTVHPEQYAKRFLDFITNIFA
Sequence of UniProt Q9H2X6 (whole entry, looked up): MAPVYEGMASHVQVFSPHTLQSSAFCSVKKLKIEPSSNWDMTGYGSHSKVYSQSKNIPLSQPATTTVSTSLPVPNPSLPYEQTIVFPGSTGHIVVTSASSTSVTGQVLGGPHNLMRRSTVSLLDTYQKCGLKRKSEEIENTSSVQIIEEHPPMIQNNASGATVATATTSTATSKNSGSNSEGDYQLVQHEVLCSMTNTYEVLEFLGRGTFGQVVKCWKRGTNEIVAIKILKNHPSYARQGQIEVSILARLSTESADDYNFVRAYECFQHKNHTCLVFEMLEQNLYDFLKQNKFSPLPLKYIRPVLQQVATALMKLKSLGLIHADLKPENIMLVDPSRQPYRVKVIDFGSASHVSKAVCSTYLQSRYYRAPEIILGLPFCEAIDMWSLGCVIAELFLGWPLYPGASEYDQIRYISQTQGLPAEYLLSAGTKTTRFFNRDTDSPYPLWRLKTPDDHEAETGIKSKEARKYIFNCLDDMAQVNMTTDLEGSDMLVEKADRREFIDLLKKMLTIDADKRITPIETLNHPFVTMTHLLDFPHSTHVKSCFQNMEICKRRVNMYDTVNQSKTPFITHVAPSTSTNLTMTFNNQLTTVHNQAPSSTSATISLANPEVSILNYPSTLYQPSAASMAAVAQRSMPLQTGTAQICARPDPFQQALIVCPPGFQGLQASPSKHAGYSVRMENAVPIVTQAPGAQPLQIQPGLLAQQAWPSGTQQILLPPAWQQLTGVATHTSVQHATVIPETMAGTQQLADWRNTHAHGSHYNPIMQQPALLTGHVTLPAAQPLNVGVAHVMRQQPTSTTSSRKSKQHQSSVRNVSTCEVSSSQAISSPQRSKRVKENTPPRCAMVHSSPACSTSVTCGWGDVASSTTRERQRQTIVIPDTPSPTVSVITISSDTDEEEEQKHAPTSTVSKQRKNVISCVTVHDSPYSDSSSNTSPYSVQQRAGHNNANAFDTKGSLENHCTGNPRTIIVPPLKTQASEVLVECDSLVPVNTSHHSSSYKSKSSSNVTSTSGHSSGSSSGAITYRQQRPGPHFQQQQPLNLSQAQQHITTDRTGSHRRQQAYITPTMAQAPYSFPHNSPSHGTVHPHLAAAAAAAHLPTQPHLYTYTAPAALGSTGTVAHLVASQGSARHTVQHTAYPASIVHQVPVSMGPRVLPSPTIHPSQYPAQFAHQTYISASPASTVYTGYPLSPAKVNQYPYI

CC(C)[C@H]1NC(=O)C[C@H]2/C=C/CCSSC[C@@H](NC1=O)C(=O)N[C@H](Cc1cccc3ccccc13)C(=O)NCC(=O)O2 — inhibition (Homeodomain-interacting protein kinase 2 (HIPK2, Homo sapiens, UniProt Q9H2X6); enzyme activity, inhibitor; 10 µM): -1%
CC[C@H](C)[C@H](NC(=O)[C@H](CO)NC(=O)[C@H](Cc1ccc(O)cc1)NC(=O)[C@H](Cc1ccc(O)cc1)NC(=O)[C@H](CC(N)=O)NC(=O)CNC(=O)[C@H](CO)NC(=O)[C@H](Cc1ccc(O)cc1)NC(=O)[C@H](CO)NC(=O)[C@H](CO)NC(=O)[C@H](CC(N)=O)NC(=O)COCCOCCNC(=O)CN1CCN(CC(=O)O)CCN(CC(=O)O)CCN(CC(=O)O)CC1)C(=O)N[C@@H](CC(C)C)C(N)=O [copper-64 labelled] — maximum metastasis uptake (dynamic PET; tamoxifen-induced PDAC mouse model, metastases; 7.5 min, CLDN4-expressing tumours): 27.5 %IA/cc
N[C@H](C(=O)N1CCCC1)C1CCN(c2nccc3c(-c4ncc(Cl)cc4Cl)cccc23)CC1 — kcat (Protein-arginine deiminase type-4 (PADI4, Homo sapiens, UniProt Q9UM07); enzyme activity; 0.006291 µM, high-affinity site, together with: Ca2+ 1.5 mM): 2.12 s⁻¹ and 2.09 s⁻¹
COc1ccccc1-c1n[nH]c2nc(NC3CCN(C(=O)Cc4ccc(F)cc4F)CC3)ncc12 — relative abundance (bead binding, competition bead pull-down, refers to: LINJ.26.2250; Leishmania donovani axenic amastigote extract; 10 µM; baseline: vehicle): 1.03
CC[C@H](C)[C@@H]1NC(=O)CNC(=O)[C@@H]2Cc3c([nH]c4cc(O)ccc34)[S@+]([O-])C[C@H](NC(=O)CNC1=O)C(=O)N[C@@H](CC(N)=O)C(=O)N1C[C@H](O)C[C@H]1C(=O)N[C@@H]([C@@H](C)[C@@H](O)CO)C(=O)N2 — transcription activity (DNA-directed RNA polymerase II subunit RPB1 (Homo sapiens, UniProt P24928); HeLa nuclear extract; 100 nM, 60 min): 9 ± 4%
Nc1ccc(/C=C/C(=O)N2CCc3c(oc4c(-c5ccc(F)cc5)cc(-c5ccc(C(=O)N6CCC(F)(F)CC6)cn5)cc34)C2)cn1 — remaining binding (RAF proto-oncogene serine/threonine-protein kinase (RAF1, Homo sapiens, UniProt P04049); binding, competition with immobilised ligand; 1 µM): 94%
CONC(=O)[C@H]1[C@@H](O)[C@@]2(O)c3c(OC)cc(OC)cc3O[C@@]2(c2ccc(OC)cc2)[C@@H]1c1ccccc1 — translation inhibition (cap-dependent firefly luciferase translation; Krebs-2 cell extract; concentration not given, (UC)10-containing reporter, tested concentrations): no inhibition
CN(C)[C@H]1C[C@@]23CC[C@@]4(O2)C(=CC[C@]2(C)[C@@H](c5ccc6ccncc6c5)CC[C@H]24)C=C3[C@@H](O)[C@@H]1O — inhibition (Phosphatidylinositol 5-phosphate 4-kinase type-2 gamma (PIP4K2C, Homo sapiens, UniProt Q8TBX8); ATP probe labelling, inhibitor, KiNativ profiling; 1 µM): -9.5%
CS(C)(=O)=Nc1ccc(-c2ccc(-c3nc4cc(O[C@@H]5CO[C@H]6[C@@H]5OC[C@H]6O)[nH]c4cc3F)cc2)cc1 — inhibition (Serine/threonine-protein kinase 26 (STK26, Homo sapiens, UniProt Q9P289); enzyme activity, inhibitor; 10 µM): 11%
O=C1NC2(CC2)COc2ncc(F)cc2[C@H]2COCCN2c2ccn3ncc1c3n2 — organ-to-brain weight ratio (Sprague-Dawley rat, male, kidneys; oral, 5 mg/kg/day, 4 weeks, end of treatment): 141 ± 7.11%
O=C1NC(=O)c2c1c1cc(F)c[n+]3c1c1c2c2cc(O)ccc2[n]1[Ru-4]312([N]=C=S)[S+]3CC[S+]1CC[S+]2CC3 (stereo not drawn) — remaining activity (Ephrin type-B receptor 2 (EPHB2, Homo sapiens, UniProt P29323); enzyme activity; 100 nM, human enzyme, together with: 10 µM ATP; baseline: untreated): 117%
CC(C)(C)C(=O)OCOP(=O)(OCOC(=O)C(C)(C)C)C1CCCN(O)C1=O (stereo not drawn) — GI50 (TK-10): 537 nM

For quick reference, copied from above:
CC(C)(C)C(=O)OCOP(=O)(OCOC(=O)C(C)(C)C)C1CCCN(O)C1=O (stereo not drawn) — GI50 (TK-10): 537 nM
